Measured values from different studies.
Protocols differ between the studies behind these lines. “And” joins repeats or separate records; there may be more than shown. ± marks the error that the study gave.
Cell line: MDA-MB-231

SMILES | effect on | method | time | setting | IC50
O=[C]=[Re-2]1(=[C]=O)(=[C]=O)([O]C(=O)c2cccnc2)[n+]2ccc(-c3ccccc3)c3ccc4c(-c5ccccc5)cc[n+]1c4c32 | cell growth or viability | resazurin | 72 h | – | 4.24 µM
C[C@]12CC/C(=N/O)C=C1CCC1C2CC[C@]2(C)/C(=C/c3ccccn3)CCC12 (some centres unmarked) | cell growth or viability | MTT | 72 h | – | 5.2 µM
COc1cc(/C=C/C(=O)/C=C/c2cn(-c3ccccc3)nc2C(=O)O)cc(OC)c1O | cell growth | – | 72 h | – | > 25 µM
COc1ccc(CNC[C@@](O)(COCc2ccc(OC)cc2)[C@@H]2CC[C@@H](C)C[C@H]2OCc2ccc(OC)cc2)cc1 | cell growth or viability | MTT | 72 h | – | 2.8 µM
Cc1cc(C)c([N+]#[C][Pt-]([Cl])([Cl])=[C](Nc2cccc(CN[C](NC(C)(C)C)=[Au][Cl])c2)Nc2c(C)cc(C)cc2C)c(C)c1 | cell growth or viability | – | – | – | > 100 µM
Cc1cc(C#N)cc(C)c1Oc1cc(Nc2ccc(C#N)cc2)nc2cnccc12 | – | – | 48 h | – | > 128 µM
C=CC(OC(C)=O)c1ccccc1 (centres unmarked) | – | MTT | 24 h | – | > 50 µM
Cc1ccccc1[N]1c2ncccc2N=Cc2cc(Br)ccc2[O][Pd]1[CH2]C#N | cell growth or viability | MTT | 48 h | – | 29.8 µM
CC(C)c1cccc(C(C)C)c1[N+]#[C][Pt-2]([Cl])([Cl])[C]#[N+]c1c(C(C)C)cccc1C(C)C | cell growth or viability | – | – | – | 0.7 µM and < 1 µM
CC(=O)OC[C@H]1O[C@@H](Oc2ccc(C#[C][Pt+])cc2)[C@H](OC(C)=O)[C@@H](OC(C)=O)[C@@H]1OC(C)=O.O=S(=O)([O-])C(F)(F)F.c1ccc(-c2cccc(-c3ccccn3)n2)nc1 | cell growth or viability | – | 72 h | – | 48.4 µM
O=[C]=[Re-2]1(=[C]=O)(=[C]=O)([O]C(=O)c2ccccn2)[n+]2ccc(-c3ccccc3)c3ccc4c(-c5ccccc5)cc[n+]1c4c32 | cell growth or viability | resazurin | 72 h | – | 1.23 µM
CN[C@@H](C)C(=O)N[C@H]1CN(C(=O)Cc2ccccc2)CC[C@H]2CC[C@@H](C(=O)NCc3ccc(F)cc3)N2C1=O | cell growth or viability | – | 96 h | – | 0.017 µM
COC(=O)[C@@H](NC(=O)[C@@H](NC(=O)OC(C)(C)C)C(C)C)C(C)C | cell growth or viability | SRB | – | – | 7 µM
CCC(=C(c1ccc(O)cc1)c1ccc(OCCN(C)CCOCCOCCOCCOCCOCCOCCOCCOCCOCCOCCOCCN(C)CCOc2ccc(C(=C(CC)c3ccccc3)c3ccc(O)cc3)cc2)cc1)c1ccccc1 (mixture of isomers) | cell growth | – | 96 h | Z-Z:Z-E:E-E isomer mix 1:2:1 | 0.32 µM
CCCC/C=N/NC(=O)c1cc2cc(Nc3nccc(-c4cccnc4)n3)ccc2[nH]1 | cell growth or viability | MTT | 48 h | – | > 20 µM
COc1ccc(CNC[C@](O)(COCc2ccccc2)[C@@H]2CC[C@@H](C)C[C@H]2OCc2ccccc2)cc1 | cell growth or viability | MTT | 72 h | – | 3.2 µM
CN[C@@H](C)C(=O)N[C@H]1CN(C(=O)Cc2ccccc2)CC[C@H]2CC[C@@H](C(=O)NCc3ccc(-c4ccccc4)cc3)N2C1=O | cell growth or viability | – | 96 h | – | 1.03 µM
CCn1cc[n+](CC)[c]1[Au-][Cl] | cell growth or viability | crystal violet | 96 h | – | 6.2 µM
CC(=O)[C@@H]1CCCN1C(=O)[C@@H]1CCCN1C(=O)[C@H](Cc1ccccc1)N(C)C(=O)OC(C)(C)C | cell growth or viability | SRB | – | – | 6 µM
COc1cc2c(cc1OCCCOc1no[n+]([O-])c1S(=O)(=O)c1ccccc1)CCC1C2CCC2(C)C(O)CCC12 (centres unmarked) | cell growth or viability | MTT | 48 h | – | 0.0212 µM

SMILES | effect on | method | time | setting | IC50
C[C@@H]1CC[C@@H]([C@@](O)(CNCc2ccc(F)cc2)COCc2ccccc2)[C@H](OCc2ccccc2)C1 | cell growth or viability | MTT | 72 h | – | 3.8 µM
O=C1c2cccc[c]2[Au-]([Cl])([Cl])[N+]1=P(c1ccccc1)(c1ccccc1)c1ccccc1 | cell growth or viability | MTT | 24 h | – | 102 µM
CCCCCCCCCCCCCCCOC(=O)/C=C/c1ccc(O)cc1 | cell viability | MTT | 48 h | serum-free medium | 1.5 ± 0.1 µg/mL
O=C(Nc1ccc([N+](=O)[O-])cc1)C(c1ccc(C(F)(F)F)cc1)N(Cc1ccccc1)C(=O)c1ccc2ccccc2n1 (centres unmarked) | – | – | 48 h | – | 40.2 ± 3.1 µM
Cc1cc(C=O)cc(C)c1Oc1cc(Nc2ccc(C#N)cn2)nc2cnccc12 | – | – | 48 h | – | 74 ± 7.3 µM
COc1ccc(COC[C@](O)(CNCc2ccc(F)cc2)[C@@H]2CC[C@@H](C)C[C@H]2OCc2ccc(OC)cc2)cc1 | cell growth or viability | MTT | 72 h | – | 3.2 µM
CN[C@@H](C)C(=O)N[C@H]1CN(C(=O)Cc2ccccc2)CC[C@H]2CC[C@@H](C(=O)NCc3ccccc3F)N2C1=O | cell growth or viability | – | 96 h | – | 0.221 µM
CC(C)=CCc1c2c(c(O)c3c(=O)c(-c4ccc(O)cc4O)coc13)C=CC(C)(C)O2 | cell growth or viability | MTT | 24 h | – | 15.3 µM
CC(C)c1cccc(C(C)C)c1[N+]#[C][Pt-]([Cl])([Cl])=[C](Nc1ccc(CN[C](Nc2c(C(C)C)cccc2C(C)C)=[Au][Cl])cc1)Nc1c(C(C)C)cccc1C(C)C | cell growth or viability | – | – | – | > 100 µM
CCCCCCCCCCCCCCCOC(=O)/C=C/c1ccc(OC)cc1 | cell viability | MTT | 48 h | serum-free medium | 58.2 ± 4.7 µg/mL
Cc1cc(C)c([N+]#[C][Pt-]([Cl])([Cl])=[C](Nc2ccc(CN[C](Nc3c(C)cc(C)cc3C)=[Au][Cl])cc2)Nc2c(C)cc(C)cc2C)c(C)c1 | cell growth or viability | – | – | – | > 100 µM
CCn1[c]([Au-]([Cl])([Cl])[Cl])[n+](CC)c2ccc(C(=O)OC)cc21 | cell growth or viability | crystal violet | 96 h | – | 9.1 µM
O=C(O)CNc1nc(O)nc(NNC(=O)c2ccc(Nc3nc(Nc4ccc(C(=O)NNc5nc(O)nc(NCC(=O)O)n5)cc4)nc(Nc4ccc(C(=O)NNc5nc(O)nc(NCC(=O)O)n5)cc4)n3)cc2)n1 | cell growth or viability | MTT | 72 h | – | 0.0866 µM
Cc1cc(C)c([N+]#[C][Pd-]([Cl])([Cl])=[C](Nc2cccc(CN[C](Nc3c(C(C)C)cccc3C(C)C)=[Au][Cl])c2)Nc2c(C)cc(C)cc2C)c(C)c1 | cell growth or viability | – | – | – | 6 µM
Cc1ccc(C(C)C)cc1.F[P-](F)(F)(F)(F)F.O=C(N=P(c1ccccc1)(c1ccccc1)c1ccccc1)c1ccccn1.[Cl-].[Ru+2] | cell growth or viability | MTT | 24 h | – | 4.91 µM
COc1cc2c(cc1OCCOc1no[n+]([O-])c1S(=O)(=O)c1ccccc1)CCC1C2CCC2(C)C(O)CCC12 (centres unmarked) | cell growth or viability | MTT | 48 h | – | 0.0183 µM
O=[C]=[Re-2]1(=[C]=O)(=[C]=O)([O]S(=O)(=O)c2ccc3ccccc3c2)[n+]2ccc(-c3ccccc3)c3ccc4c(-c5ccccc5)cc[n+]1c4c32 | cell growth or viability | resazurin | 72 h | – | 1.08 µM
CN(C)C1=[S+][Au-2]2([S]1)[c]1ccccc1-c1cccc[n+]12.F[P-](F)(F)(F)(F)F (centres unmarked) | cell growth or viability | MTT | 72 h | – | 0.35 µM
CN[C@@H](C)C(=O)N[C@H]1CN(C(=O)Cc2ccccc2)CC[C@H]2CC[C@@H](C(=O)NCc3cccc(Br)c3)N2C1=O | cell growth or viability | – | 96 h | – | 0.327 µM
COc1cc(/C=C/C(=O)NCCCCCCNC2=C3C[C@@H](C)C[C@H](OC)[C@H](O)[C@@H](C)/C=C(\C)[C@H](OC(N)=O)[C@@H](OC)/C=C\C=C(/C)C(=O)NC(=CC2=O)C3=O)ccc1O | cell growth or viability | MTT | 72 h | – | 0.27 µM

SMILES | effect on | method | time | setting | IC50
c1ccc(-n2nc(-c3ccccn3)n[n+]2-c2ccccc2)cc1 | cell growth or viability | resazurin | 72 h | – | 210 µM
Oc1ccc2c(c1)OCc1c-2oc2cc3c(cc12)OCO3 | cell growth or viability | MTT | 72 h | – | 25.4 µM
CCC(C(=O)O)C1CCC(C)C(C(C)C(O)C(C)C(=O)C(CC)C2OC3(C=CC(=O)C4(CCC(C)(C5CCC(O)(CC)C(C)O5)O4)O3)C(C)CC2C)O1 (centres unmarked) | cell growth or viability | MTT | – | – | 12.1 µM
CCCCCCCCCCCCCCCOC(=O)/C=C/c1cc(O)c(O)c(OC)c1 | cell viability | MTT | 48 h | serum-free medium | 4.1 ± 0.3 µg/mL
Cc1cc(C)c([N+]#[C][Pd-]([Cl])([Cl])=[C](Nc2ccc(CN[C](NC(C)(C)C)=[Au][Cl])cc2)Nc2c(C)cc(C)cc2C)c(C)c1 | cell growth or viability | – | – | – | > 100 µM
CN(C)CCO/N=C1/C=C2CCC3C(CC[C@]4(C)/C(=C/c5ccccn5)CCC34)[C@@]2(C)CC1 (some centres unmarked) | cell growth or viability | MTT | 72 h | – | > 100 µM
CC(C)CN(CC(=O)N1CCN(CC(OCc2ccc3ccccc3c2)c2ccc(Cl)cc2Cl)CC1)CC(C)C (centres unmarked) | cell growth or viability | MTT | 24 h | – | 1.66 µM
CC(C)=CCOc1ccc(-c2coc3cc4c(c(O)c3c2=O)C=CC(C)(C)O4)cc1 | cell growth or viability | MTT | 24 h | – | > 100 µM
COc1cc2c(cc1Oc1no[n+]([O-])c1S(=O)(=O)c1ccccc1)CCC1C2CCC2(C)C(O)CCC12 (centres unmarked) | cell growth or viability | MTT | 48 h | – | 0.0384 µM
O=C(CNc1nc(O)nc(NNC(=O)c2ccc(Nc3nc(Nc4ccc(C(=O)NNc5nc(O)nc(NCC(=O)NO)n5)cc4)nc(Nc4ccc(C(=O)NNc5nc(O)nc(NCC(=O)NO)n5)cc4)n3)cc2)n1)NO | cell growth or viability | MTT | 72 h | – | 0.0729 µM
COc1ccc(/C(=C(/CCn2cc(CN3C(=O)C4(OCCO4)c4cc(F)ccc43)nn2)c2ccccc2)c2ccccc2)cc1 | cell growth or viability | MTT | – | – | > 100 µM
Nc1cccc[n+]1Cc1cccc(C[n+]2ccccc2N)c1 | cell growth or viability | MTT | 72 h | – | 19.1 µM
COc1c(C)c(OS(=O)(=O)c2ccccc2)c(C)c2c1C(=O)CC(c1ccccc1)O2 (centres unmarked) | cell growth or viability | SRB | 72 h | – | > 50 µM
COc1ccc2c(c1)/C(=N/NC(N)=S)C(=O)N2CCn1cnc2c(N)ncnc21 | cell growth or viability | SRB | 72 h | – | 72.4 µM
Cc1cc(C)c(-n2c3c([n+](-c4c(C)cc(C)cc4C)[c]2[Cu-][Cl])-c2cccc4cccc-3c24)c(C)c1 | cell growth or viability | MTT | 72 h | – | 5 µM
CN(C)C(=S)N(C)N=Cc1ccccc1SSc1ccccc1C=NN(C)C(=S)N(C)C | cell growth or viability | MTT | 72 h | – | 0.33 µM
CN[C@@H](C)C(=O)N[C@H]1CN(C(=O)Cc2ccccc2)CC[C@H]2CC[C@@H](C(=O)NCc3ccccc3Cl)N2C1=O | cell growth or viability | – | 96 h | – | 0.545 µM
C=CC(=C)CC[C@]1(C)[C@H](C)CC[C@@]23C(=C[C@H](OC(=O)CCCCC)C[C@@H]12)[C@@H](OC(C)=O)O[C@H]3OC(C)=O | cell growth or viability | SRB | – | – | 0.49 µM
O=[C]=[Re-2]1(=[C]=O)(=[C]=O)([O]C(=O)c2ccccc2Nc2cccc(C(F)(F)F)c2)[n+]2ccc(-c3ccccc3)c3ccc4c(-c5ccccc5)cc[n+]1c4c32 | cell growth or viability | resazurin | 72 h | – | 3.27 µM
